# Measurements of several laboratories.
# Numbered parts are unrelated; each lists some results of a single study.
# UniProt P54760, sequence (whole entry, looked up): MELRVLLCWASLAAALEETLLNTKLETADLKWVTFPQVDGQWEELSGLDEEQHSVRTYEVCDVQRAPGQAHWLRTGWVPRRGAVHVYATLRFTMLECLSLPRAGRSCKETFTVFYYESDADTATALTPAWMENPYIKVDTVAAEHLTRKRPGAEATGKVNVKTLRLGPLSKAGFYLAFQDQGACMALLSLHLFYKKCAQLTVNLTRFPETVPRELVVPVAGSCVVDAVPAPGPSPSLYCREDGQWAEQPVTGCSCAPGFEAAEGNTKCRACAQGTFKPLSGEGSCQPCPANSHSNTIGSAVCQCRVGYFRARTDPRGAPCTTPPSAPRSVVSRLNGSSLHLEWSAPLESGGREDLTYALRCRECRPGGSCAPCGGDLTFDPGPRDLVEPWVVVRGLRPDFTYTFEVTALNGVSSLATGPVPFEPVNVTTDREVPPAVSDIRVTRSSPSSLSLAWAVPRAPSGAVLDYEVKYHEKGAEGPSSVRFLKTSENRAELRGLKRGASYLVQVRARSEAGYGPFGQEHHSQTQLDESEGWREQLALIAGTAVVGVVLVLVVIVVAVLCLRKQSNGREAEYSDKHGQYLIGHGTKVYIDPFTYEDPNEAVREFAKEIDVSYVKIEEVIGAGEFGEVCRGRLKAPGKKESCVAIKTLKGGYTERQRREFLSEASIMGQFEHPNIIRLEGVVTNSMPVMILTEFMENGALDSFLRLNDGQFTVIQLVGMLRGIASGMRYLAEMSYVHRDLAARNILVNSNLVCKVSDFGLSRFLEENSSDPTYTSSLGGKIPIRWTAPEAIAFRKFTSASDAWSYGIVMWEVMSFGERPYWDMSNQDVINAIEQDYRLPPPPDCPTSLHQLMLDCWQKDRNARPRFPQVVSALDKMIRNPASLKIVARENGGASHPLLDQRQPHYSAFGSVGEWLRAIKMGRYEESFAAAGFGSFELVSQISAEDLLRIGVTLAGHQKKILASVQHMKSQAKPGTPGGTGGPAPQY
# UniProt Q96PF2, sequence (whole entry, looked up): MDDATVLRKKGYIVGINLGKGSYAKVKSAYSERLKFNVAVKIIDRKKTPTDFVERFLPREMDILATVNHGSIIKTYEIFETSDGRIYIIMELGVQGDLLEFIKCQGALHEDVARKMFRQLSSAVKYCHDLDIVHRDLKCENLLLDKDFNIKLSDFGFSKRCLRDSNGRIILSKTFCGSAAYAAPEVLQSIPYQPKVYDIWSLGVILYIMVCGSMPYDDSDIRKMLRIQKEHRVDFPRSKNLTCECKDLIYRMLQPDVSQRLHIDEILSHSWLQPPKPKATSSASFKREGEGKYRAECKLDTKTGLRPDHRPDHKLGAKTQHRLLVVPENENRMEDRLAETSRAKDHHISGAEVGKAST
# UniProt Q13554, sequence (whole entry, looked up): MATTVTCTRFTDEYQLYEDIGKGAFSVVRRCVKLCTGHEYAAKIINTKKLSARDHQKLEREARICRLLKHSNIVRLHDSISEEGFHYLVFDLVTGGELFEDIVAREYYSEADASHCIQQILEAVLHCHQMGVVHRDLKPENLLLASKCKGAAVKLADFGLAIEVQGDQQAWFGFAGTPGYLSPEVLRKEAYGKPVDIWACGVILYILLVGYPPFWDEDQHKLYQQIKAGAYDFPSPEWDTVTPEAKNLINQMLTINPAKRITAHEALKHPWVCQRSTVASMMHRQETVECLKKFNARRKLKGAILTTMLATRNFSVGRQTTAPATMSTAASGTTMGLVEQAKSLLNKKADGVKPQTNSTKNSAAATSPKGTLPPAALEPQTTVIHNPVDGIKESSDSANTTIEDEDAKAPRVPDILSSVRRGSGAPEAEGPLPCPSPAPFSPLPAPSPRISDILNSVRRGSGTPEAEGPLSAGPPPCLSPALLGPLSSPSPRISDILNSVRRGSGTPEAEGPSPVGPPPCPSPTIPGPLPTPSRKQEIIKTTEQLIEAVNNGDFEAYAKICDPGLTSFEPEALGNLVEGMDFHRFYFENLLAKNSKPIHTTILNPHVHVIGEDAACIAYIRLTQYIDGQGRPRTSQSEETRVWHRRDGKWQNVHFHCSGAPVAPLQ
# UniProt P29376, sequence (whole entry, looked up): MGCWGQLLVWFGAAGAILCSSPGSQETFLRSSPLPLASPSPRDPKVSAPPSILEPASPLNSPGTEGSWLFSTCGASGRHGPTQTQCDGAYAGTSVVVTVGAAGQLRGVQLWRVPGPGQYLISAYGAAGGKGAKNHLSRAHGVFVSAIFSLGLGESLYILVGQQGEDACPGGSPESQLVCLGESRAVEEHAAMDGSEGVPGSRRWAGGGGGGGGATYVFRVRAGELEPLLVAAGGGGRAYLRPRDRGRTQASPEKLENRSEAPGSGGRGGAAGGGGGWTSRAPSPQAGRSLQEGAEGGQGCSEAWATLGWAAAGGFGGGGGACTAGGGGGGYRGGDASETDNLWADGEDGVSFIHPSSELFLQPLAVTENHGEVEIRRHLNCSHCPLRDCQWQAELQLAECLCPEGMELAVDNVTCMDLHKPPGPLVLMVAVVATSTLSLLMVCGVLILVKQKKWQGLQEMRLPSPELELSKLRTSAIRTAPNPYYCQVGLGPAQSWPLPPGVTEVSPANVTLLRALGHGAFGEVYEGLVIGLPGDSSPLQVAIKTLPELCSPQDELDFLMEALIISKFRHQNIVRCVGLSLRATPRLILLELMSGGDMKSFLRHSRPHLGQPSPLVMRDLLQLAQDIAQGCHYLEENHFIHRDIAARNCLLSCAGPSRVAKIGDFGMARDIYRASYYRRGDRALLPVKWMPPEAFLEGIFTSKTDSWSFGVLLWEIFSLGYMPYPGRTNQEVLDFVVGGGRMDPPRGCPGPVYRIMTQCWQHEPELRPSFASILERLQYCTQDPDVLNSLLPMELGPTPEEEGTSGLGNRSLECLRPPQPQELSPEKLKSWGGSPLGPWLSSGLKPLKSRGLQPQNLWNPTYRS
# UniProt O15530, sequence (whole entry, looked up): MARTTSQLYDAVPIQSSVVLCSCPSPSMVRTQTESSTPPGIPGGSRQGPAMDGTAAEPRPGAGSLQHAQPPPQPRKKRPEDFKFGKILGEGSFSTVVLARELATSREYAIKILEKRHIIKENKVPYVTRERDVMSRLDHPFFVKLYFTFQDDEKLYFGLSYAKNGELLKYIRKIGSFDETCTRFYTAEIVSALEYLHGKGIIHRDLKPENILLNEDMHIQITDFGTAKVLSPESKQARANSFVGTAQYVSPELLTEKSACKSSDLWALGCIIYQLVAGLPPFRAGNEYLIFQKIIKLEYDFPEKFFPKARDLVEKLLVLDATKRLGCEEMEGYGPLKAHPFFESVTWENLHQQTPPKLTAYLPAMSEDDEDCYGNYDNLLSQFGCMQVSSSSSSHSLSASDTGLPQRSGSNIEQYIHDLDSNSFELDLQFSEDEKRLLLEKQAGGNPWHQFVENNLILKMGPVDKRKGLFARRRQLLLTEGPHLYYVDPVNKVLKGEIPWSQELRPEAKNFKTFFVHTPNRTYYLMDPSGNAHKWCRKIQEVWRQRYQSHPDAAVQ
# UniProt O43781, sequence (whole entry, looked up): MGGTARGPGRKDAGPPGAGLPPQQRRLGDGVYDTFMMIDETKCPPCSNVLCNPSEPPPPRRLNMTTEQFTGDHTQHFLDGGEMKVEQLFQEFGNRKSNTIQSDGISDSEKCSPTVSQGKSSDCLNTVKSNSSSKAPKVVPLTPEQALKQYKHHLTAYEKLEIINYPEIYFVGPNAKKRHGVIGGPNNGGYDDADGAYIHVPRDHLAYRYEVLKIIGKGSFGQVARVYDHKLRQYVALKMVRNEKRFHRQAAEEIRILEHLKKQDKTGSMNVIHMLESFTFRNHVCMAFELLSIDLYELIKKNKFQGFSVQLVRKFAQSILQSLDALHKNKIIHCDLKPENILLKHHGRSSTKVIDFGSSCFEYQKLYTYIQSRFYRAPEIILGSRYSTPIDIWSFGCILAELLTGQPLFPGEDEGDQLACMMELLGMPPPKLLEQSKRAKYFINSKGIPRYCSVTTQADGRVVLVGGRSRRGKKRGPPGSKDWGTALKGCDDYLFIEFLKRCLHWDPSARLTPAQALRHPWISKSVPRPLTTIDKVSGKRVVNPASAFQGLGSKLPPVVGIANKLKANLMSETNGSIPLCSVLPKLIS
# UniProt O75582, sequence (whole entry, looked up): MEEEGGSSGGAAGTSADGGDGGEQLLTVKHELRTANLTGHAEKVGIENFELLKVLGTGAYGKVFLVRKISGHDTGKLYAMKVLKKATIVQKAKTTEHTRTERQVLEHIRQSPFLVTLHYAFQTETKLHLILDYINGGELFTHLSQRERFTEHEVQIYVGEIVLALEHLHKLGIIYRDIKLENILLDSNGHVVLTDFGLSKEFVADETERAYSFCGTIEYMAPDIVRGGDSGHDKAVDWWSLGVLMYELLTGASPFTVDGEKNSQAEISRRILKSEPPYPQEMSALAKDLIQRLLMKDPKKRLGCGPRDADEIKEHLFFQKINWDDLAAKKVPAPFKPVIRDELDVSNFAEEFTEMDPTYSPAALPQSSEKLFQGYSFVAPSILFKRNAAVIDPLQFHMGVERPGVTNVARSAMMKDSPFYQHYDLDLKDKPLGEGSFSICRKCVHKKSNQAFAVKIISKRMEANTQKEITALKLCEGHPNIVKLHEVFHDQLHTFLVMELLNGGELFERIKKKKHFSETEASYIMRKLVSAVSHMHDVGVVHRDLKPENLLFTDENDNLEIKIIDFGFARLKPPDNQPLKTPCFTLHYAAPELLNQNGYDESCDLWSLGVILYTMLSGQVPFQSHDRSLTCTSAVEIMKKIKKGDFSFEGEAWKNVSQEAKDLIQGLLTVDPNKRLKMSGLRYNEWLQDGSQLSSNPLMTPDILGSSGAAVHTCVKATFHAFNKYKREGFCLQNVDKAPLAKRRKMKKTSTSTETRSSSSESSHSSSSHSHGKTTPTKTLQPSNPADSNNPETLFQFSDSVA

# Block 1
# Cell line: A-375
# Tested at: 100 µM
# Time: 18 h
SMILES,viability [%]
c1ccc(NNc2ccccc2)cc1,23.2
C[C@H]1CNCCc2ccc(Cl)cc21,87.4
COc1ccc(CN(C(=O)[C@@H](N)Cc2c(C)cc(C(N)=O)cc2C)[C@@H](C)c2nc(-c3ccccc3)c[nH]2)cc1C(=O)O,100
CN1C[C@H](C(=O)N[C@]2(C)O[C@@]3(O)[C@@H]4CCCN4C(=O)[C@H](Cc4ccccc4)N3C2=O)C=C2c3cccc4[nH]cc(c34)C[C@H]21,64.6
C[C@@H](CO)NC(=O)[C@@H]1C=C2c3cccc4[nH]cc(c34)C[C@H]2N(C)C1,87.9
O=C(O)c1nn(Cc2ccc(Cl)cc2Cl)c2ccccc12,109
CCN(CC)C(C)C(=O)c1ccccc1 (stereo not shown),95.1
CCCCC(C#N)(Cn1cncn1)c1ccc(Cl)cc1 (stereo not shown),32
CN(C(=O)/C=C/c1ccoc1)[C@@H]1CC[C@@]2(O)[C@H]3Cc4ccc(O)c5c4[C@@]2(CCN3CC2CC2)[C@H]1O5,95.8
Oc1cc(Cl)ccc1Oc1ccc(Cl)cc1Cl,8.77
CN[C@H]1C[C@@H](N)[C@H](O)[C@@H](O[C@@H]2O[C@H](CO)[C@H](O)[C@@H]3OC4(O[C@H]23)O[C@H]([C@@H](N)CO)[C@H](O)[C@H](O)[C@H]4O)[C@@H]1O (stereo partly shown),75.7
Cc1ccc(NC(=O)C2(c3ccc4c(c3)OC(F)(F)O4)CC2)nc1-c1cccc(C(=O)O)c1,60.2

# Block 2
# Cell line: mouse MPNST tumor cells
# Method: high-content immunofluorescence imaging
# Measured: nuclear SOX9
# Tested at: 10 µM
# Time: 12 h
# Notes: mean of 2 replicates
# Relative to: DMSO control
# Reading: higher = more nuclear SOX9
Structure (SMILES),nuclear SOX9 intensity
CCN[C@@H](C)Cc1cccc(C(F)(F)F)c1,100 % of DMSO
CCNCC(O)c1cccc(O)c1 (stereo not shown),92.9 % of DMSO
C=CCN1C[C@H](C(=O)N(CCCN(C)C)C(=O)NCC)C[C@@H]2c3cccc4[nH]cc(c34)C[C@H]21,109 % of DMSO
CC(C)c1ccccc1C1SCC(=O)Nc2ccc(Cl)cc21 (stereo not shown),103 % of DMSO

# Block 3
# Cell line: HEK-293T/ACE2
# Method: Hoechst nuclei count
# Tested at: concentration not given
# Time: 16 (unit not given)
# Relative to: vehicle
Structure (SMILES),viability [%]
N=C(N)c1ccc(OCCCCCOc2ccc(C(=N)N)cc2)cc1,102
Nc1ncnc2c1ncn2[C@@H]1O[C@H](CO)[C@@H](O)[C@@H]1O,97.9
C#C[C@]1(O)CC[C@H]2[C@@H]3CCC4=CC(=O)CC[C@@H]4[C@H]3C(=C)C[C@@]21CC,104
Cc1ccc(=O)n(-c2ccccc2)c1,98.3
CC(=O)O[C@]1(C(C)=O)CC[C@H]2[C@@H]3CCC4=CC(=O)CCC4=C3[C@@H](c3ccc(N(C)C)cc3)C[C@@]21C,105
O=C(Nc1c(Cl)cncc1Cl)c1ccc(OC(F)F)c(OCC2CC2)c1,97.7
C#C[C@]1(O)CC[C@H]2[C@@H]3CCC4=CC(=O)CC[C@@H]4[C@H]3CC[C@@]21CC,99.3
Nc1ccn(C[C@@H](CO)OCP(=O)(O)O)c(=O)n1,107
O=C1CCCC(=O)C1C(=O)c1ccc(C(F)(F)F)cc1[N+](=O)[O-],106
COc1c(N2CCNC(C)C2)c(F)cc2c(=O)c(C(=O)O)cn(C3CC3)c12 (stereo not shown),98.3
CC(=O)OCC(=O)[C@@]12OC(C)(C)O[C@@H]1C[C@H]1[C@@H]3C[C@H](F)C4=CC(=O)C=C[C@]4(C)[C@@]3(F)[C@@H](O)C[C@@]12C,102
C[C@@H](c1nc(-c2ccc(C#N)cc2)cs1)[C@](O)(Cn1cncn1)c1cc(F)ccc1F,90.8

# Block 4
# SMILES: CCn1cnc2c(Nc3cccc(Cl)c3)nc(N[C@H]3CCCC[C@H]3N)nc21
# Effect on: enzyme activity
# Mode: inhibitor
# Tested at: 0.5 µM
target,method,relative to,remaining activity [%]
"3-phosphoinositide-dependent protein kinase 1 (PDPK1, Homo sapiens, UniProt O15530)",,control,94.8
"Tyrosine-protein kinase receptor UFO (AXL, Homo sapiens, UniProt P30530)",,control,98.7
"Cyclin-dependent kinase 1, with cyclin B (CDK1, Homo sapiens, UniProt P06493)",,control,16.4
"Testis-specific serine/threonine-protein kinase 2 (TSSK2, Homo sapiens, UniProt Q96PF2)",,control,109
"MAP kinase-activated protein kinase 3 (MAPKAPK3, Homo sapiens, UniProt Q16644)",,control,91.3
"Ephrin type-A receptor 4 (EPHA4, Homo sapiens, UniProt P54764)",,control,78.5
"Dual specificity tyrosine-phosphorylation-regulated kinase 3 (DYRK3, Homo sapiens, UniProt O43781)",,control,83.7
"Homeodomain-interacting protein kinase 2 (HIPK2, Homo sapiens, UniProt Q9H2X6)",,control,94
"Ephrin type-B receptor 4 (EPHB4, Homo sapiens, UniProt P54760)",,control,70.8
"Ribosomal protein S6 kinase alpha-5 (RPS6KA5, Homo sapiens, UniProt O75582)",,control,87.8
"Calcium/calmodulin-dependent protein kinase type II subunit beta (CAMK2B, Homo sapiens, UniProt Q13554)",,control,110
"Leukocyte tyrosine kinase receptor (LTK, Homo sapiens, UniProt P29376)",radiometric,,93.8

# Some of these lines once more (block 3):
Structure (SMILES),viability [%]
Cc1ccc(=O)n(-c2ccccc2)c1,98.3
CC(=O)O[C@]1(C(C)=O)CC[C@H]2[C@@H]3CCC4=CC(=O)CCC4=C3[C@@H](c3ccc(N(C)C)cc3)C[C@@]21C,105
O=C(Nc1c(Cl)cncc1Cl)c1ccc(OC(F)F)c(OCC2CC2)c1,97.7
